Assay results of several laboratories.
Every numbered part comes from another study and shows a few of its results, in no order. Positions count from the first letter of the parent shown.

Set 1
Target: CCNB3, cyclin fold, Cln2 fusion (human)
Method: yeast growth competition, sequencing
Matrix: yeast
Notes: strong parent motif
Relative to: not given
Reading: higher = stronger binding
Parent: PPP1R3F docking peptide (human); VAPRRVLFADEAL
Change | normalised enrichment score
R5K F8L | 0.0968
V1A | 1.22
R4A | 0.887
E11A | 0.993
L13A | 1.72
F8A | 0.0709

Set 2
Target: Histone acetyltransferase KAT6A, winged helix 1, GST fusion (KAT6A, Homo sapiens, UniProt Q92794, residues 1-85)
Method: protein binding microarray
Form: double-stranded DNA, one strand shown
Matrix: in vitro
Concentration: not given
Notes: 8-mer, flanks averaged, mean of 2 arrays, mostly near background
Relative to: not given
Reading: higher = stronger binding
Construct (chain): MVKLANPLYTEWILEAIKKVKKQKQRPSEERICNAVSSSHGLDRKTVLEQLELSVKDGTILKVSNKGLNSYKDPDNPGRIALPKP
Sequence | E-score
AATTAGCT | -0.144
ACGCCTAC | 0.113
GCTACACC | 0.122
AATGTAGG | -0.105
ACTCGGCA | 0.16
CACAAACC | -0.168
GTCGCCAC | 0.109
TCGATACA | -0.162
AAGGAACT | -0.166
ACTGGGAA | -0.183
GACTTTAC | 0.0868
CATCAGCC | -0.0811
GAAGAGAA | -0.141
ACCCGACA | 0.152
CTACACAA | -0.181
CATCACGG | 0.169
AGATCACA | -0.0933
CTGCGCTA | 0.219
TCCTAGCA | -0.00637
CGCGAGAC | 0.163
AGAACATG | -0.0517

Set 3
Target: Fragile X messenger ribonucleoprotein 1, C-terminal low-complexity region (Fmr1, Mus musculus, UniProt P35922)
Method: RNA Bind-n-Seq
Form: RNA
Matrix: in vitro
Concentration: 200 nM
Notes: whole 134-nt RNA, ends assumed
Together with: 150 mM LiCl
Relative to: input library
Reading: higher = stronger binding
All molecules: 7-deaza-guanosine replaces G
Sequence | log2 enrichment
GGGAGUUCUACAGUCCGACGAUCUCCUCAAGUCCUGUGCUACACAUCGUAUGUACCGAAUCGGGCGGGCGGCGGGAAAGUAUUAUGUUACGCCGUUCGGAUCUGCACUUCCAGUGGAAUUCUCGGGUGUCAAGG | 0.783
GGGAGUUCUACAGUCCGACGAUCAAGUCCUGUGCUACACAUCGUAUGUACCGAAUCAAAUUUAAACCCCCAAAUUUAAAAAAGUAUUAUGUUACGCCGUUCGGAUCUGCACUUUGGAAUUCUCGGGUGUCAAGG | -0.563
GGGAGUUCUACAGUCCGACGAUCAAGUCGCGUGUCUAGGUGAGUCGCGGUGGGUCCUCGCUUGCAGUUCAGCGACCACGGUGGGUACCGUUUUUGCGAGGAUUGUUUGUCCCCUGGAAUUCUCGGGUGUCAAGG | -0.677
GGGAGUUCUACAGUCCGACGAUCCCUGUGCUACACAUCGUAUGUACCGAAUCGGGGUUUUUUUGGGUUUUUUUGGUUUUUUUGGAAAGUAUUAUGUUACGCCGUUCGGAUCUGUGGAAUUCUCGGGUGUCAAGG | 0.902
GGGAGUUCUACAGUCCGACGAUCUGGGAGGUGGAUUUUGUUUAUUUUUUUAGCUCAUUUCCAGGGGUGGGAAUUUUUUUUUAUUAUGUGUCAUGAAUAAAGUUGUUUUUGAAAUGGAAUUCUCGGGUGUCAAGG | -0.116
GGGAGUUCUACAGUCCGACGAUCCCUCAAGUCCUGUGCUACACAUCGUAUGUACCGAAUCGGAGGAAAGGAAAGGAAAGUAUUAUGUUACGCCGUUCGGAUCUGCACUUCCAGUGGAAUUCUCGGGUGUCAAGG | -0.969
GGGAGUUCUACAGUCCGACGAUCUGGGAGGUGGAUUUUGUUUAUUUUUUUAGCUCAUUUCCAGGGGUGGGAAUUUUUUUUUAAAAUGUGUCAUGAAUAAAGUUGUUUUUGAAAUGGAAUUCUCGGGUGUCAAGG | -0.164
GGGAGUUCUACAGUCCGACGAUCCCUGUGCUACACAUCGUAUGUACCGAAUCGGGGUUUUUGGGGUUUGGGGAAAAAAAGGGGAAAGUAUUAUGUUACGCCGUUCGGAUCUGCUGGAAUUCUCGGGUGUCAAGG | -1.2

Set 4
Target: Interferon regulatory factor 7, full length, phosphomimetic (IRF7, Homo sapiens, UniProt Q92985, residues 1-503, S101K/S471D/S472D/S475D/S476D/S477D/S483D/S484D/S487D)
Method: protein-binding microarray
Form: double-stranded DNA, one strand shown
Matrix: in vitro
Concentration: 250 nM
Notes: 60-bp whole probe
Together with: salmon DNA 0.4 mg/ml
Relative to: random background probes
Reading: higher = stronger binding
Constant ends, left off below: GCCTAGCAC … GTCTTGATTCGCTTGACGCTGCTG
Residues (chain): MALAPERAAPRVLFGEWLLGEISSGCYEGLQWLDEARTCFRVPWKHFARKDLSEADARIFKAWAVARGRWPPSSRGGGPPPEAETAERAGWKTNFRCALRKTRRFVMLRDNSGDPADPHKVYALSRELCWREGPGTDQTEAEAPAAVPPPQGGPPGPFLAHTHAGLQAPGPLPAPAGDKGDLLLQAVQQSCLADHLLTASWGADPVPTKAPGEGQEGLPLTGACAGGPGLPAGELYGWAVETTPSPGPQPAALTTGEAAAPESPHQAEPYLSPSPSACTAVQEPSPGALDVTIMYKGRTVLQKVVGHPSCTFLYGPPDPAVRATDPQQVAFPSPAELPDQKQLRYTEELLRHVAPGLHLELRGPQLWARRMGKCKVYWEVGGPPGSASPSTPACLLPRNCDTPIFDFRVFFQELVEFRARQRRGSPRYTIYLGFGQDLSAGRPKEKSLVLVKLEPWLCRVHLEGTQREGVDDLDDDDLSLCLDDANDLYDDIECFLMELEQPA
Sequence | log fluorescence
GACTGTTCCCTTTTCCTGACGTGCTAG | 2.48 z-score
TCAGCTGTTTTTCTCACCACGTGCTAG | 0.0589 z-score
TTAGCTTTCCTTATCCTTTAGTGCTAG | 0.902 z-score
GACGGTTCCGTTTTCGGGACGTGCTAG | 5.16 z-score
TCACATTTAGAAAATGGAACTGTGCTA | 0.872 z-score
GACGAACTGAGTATGGAGACGTGCTAG | -0.55 z-score
GACTATATCGGGTTTCGAGACGTGCTA | 3.16 z-score
TTAAGTATCCTTATCCTTTAGTGCTAG | 0.69 z-score
TTAGGTTTCCTACTCCTTTAGTGCTAG | 1.45 z-score
GATGGTATCGGTTTCGGGACGTGCTAG | 7.54 z-score
GACGGGCTGGGGACTGGGGACGTGCTA | -0.848 z-score
GACGATTCCAGTTTCTAGACGTGCTAG | 1.64 z-score
ATAGGTCTCCTTCTCCTTTAGTGCTAG | 0.311 z-score
TCTCCTTTCGGAATACCCTCGTGCTAG | 2.7 z-score
GACGATTTTAGTCTCGAGACGTGCTAG | 0.837 z-score
TTAGAACTGATTTTCGATTAGTGCTAG | 2.49 z-score
TTAGATTTCGGGACTGGCTTAGTGCTA | -0.124 z-score
TAGGGACTCAGGTCTCCCTTGGTGCTA | -0.132 z-score
GATGGAAACTTAAACTAGAAAGTGCTA | 0.0723 z-score
